Experimental data pooled from the literature.
Each numbered part is a random draw from the data of one study; scales do not carry over between parts.
Sequence of UniProt P07333 (whole entry, looked up): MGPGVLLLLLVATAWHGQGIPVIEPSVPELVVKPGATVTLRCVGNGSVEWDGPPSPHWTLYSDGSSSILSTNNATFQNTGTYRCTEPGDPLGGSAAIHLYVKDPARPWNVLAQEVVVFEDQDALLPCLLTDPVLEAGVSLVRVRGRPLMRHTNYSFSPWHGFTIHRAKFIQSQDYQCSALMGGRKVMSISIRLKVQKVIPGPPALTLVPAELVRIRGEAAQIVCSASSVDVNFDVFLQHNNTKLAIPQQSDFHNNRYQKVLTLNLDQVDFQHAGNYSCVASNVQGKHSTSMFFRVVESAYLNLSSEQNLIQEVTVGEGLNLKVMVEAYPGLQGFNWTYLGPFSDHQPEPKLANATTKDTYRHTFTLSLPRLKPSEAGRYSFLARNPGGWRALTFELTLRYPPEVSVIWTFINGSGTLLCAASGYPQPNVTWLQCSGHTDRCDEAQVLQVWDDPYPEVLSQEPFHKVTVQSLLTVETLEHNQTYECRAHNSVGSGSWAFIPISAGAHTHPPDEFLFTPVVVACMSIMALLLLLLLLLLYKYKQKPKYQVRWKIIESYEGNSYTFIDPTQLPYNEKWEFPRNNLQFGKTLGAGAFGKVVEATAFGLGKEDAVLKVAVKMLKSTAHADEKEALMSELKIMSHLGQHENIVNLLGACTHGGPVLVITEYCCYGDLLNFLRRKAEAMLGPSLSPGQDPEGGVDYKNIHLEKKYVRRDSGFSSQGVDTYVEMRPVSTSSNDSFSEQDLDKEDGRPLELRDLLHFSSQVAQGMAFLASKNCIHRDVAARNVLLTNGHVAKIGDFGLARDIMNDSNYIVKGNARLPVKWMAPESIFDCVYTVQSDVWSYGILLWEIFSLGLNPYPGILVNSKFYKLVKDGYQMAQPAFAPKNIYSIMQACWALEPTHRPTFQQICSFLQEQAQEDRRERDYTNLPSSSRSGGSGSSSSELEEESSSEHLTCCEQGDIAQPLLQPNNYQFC
Sequence of UniProt Q9NTZ6 (830-932, looked up): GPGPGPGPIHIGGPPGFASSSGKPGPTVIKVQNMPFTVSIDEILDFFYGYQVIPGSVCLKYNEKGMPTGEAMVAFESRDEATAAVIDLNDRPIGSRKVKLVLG

Block 1 — technique: RNA Bind-n-Seq; form: RNA; medium: in vitro; concentration: 20 nM; notes: 6-mer, flanks averaged, single round; with: 150 mM LiCl; reference: input library; reading: higher = stronger binding; quantity: 6-mer enrichment (R)
Target: TAR DNA-binding protein 43, full length, His tag (TARDBP, Homo sapiens, UniProt Q13148, residues 1-414)
GUAAGC: 0.941
GUUAUC: 0.939
AAUAUA: 0.977
UUCUAC: 0.879
GGGAGA: 1.18
UGAAGG: 1.06
ACGGCA: 0.869
UACACG: 0.845

Block 2 — technique: universal PBM; form: double-stranded DNA, one strand shown; medium: in vitro; concentration: 600 nM; reading: higher = stronger binding; quantity: E-score
Target: Sal-like protein 4, full length isoform A (SALL4, Homo sapiens, UniProt Q9UJQ4, residues 1-1053)
Sequence of UniProt Q9UJQ4 (whole entry, looked up): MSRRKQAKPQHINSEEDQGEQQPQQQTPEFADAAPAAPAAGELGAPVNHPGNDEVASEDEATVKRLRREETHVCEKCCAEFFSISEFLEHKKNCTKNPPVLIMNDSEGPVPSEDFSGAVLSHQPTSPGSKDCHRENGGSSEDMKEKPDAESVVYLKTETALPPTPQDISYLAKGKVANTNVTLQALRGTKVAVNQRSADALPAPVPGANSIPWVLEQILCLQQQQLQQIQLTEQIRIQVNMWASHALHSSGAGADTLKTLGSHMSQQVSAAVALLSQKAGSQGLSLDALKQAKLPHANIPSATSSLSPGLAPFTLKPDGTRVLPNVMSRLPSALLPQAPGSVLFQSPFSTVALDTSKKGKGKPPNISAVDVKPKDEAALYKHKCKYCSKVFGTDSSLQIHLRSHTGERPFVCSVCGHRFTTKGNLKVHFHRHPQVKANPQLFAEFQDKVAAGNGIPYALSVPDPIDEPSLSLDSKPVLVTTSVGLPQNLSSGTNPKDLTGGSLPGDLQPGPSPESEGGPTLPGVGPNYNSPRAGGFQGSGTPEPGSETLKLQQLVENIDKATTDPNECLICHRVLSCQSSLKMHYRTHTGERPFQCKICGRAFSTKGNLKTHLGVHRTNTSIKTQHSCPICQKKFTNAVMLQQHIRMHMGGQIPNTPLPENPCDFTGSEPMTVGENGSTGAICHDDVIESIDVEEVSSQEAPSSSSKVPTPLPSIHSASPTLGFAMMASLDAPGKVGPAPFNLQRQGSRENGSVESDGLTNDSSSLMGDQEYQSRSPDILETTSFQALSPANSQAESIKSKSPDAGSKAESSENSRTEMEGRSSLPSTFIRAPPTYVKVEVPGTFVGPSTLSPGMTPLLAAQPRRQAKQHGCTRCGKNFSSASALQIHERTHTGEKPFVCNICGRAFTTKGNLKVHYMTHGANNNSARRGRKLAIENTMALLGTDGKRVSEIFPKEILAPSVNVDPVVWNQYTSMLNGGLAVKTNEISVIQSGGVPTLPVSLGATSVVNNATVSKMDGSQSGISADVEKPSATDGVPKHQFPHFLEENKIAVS
Notes: 8-mer, flanks averaged, mean of replicates
ACTACCCT: -0.022
GATATGGC: -0.0684
CGTTGTGC: -0.0403
ACTGTAAG: 0.144
AAAAGCTC: -0.0745
ATGGAACA: -0.000525
GAGAGCCA: -0.0783
AATCCCAA: 0.108

Single results of other studies
AAAAAAAA (biotin)  signal ratio (RNA-binding protein 12, RRM domain 3 (RBM12, Homo sapiens, UniProt Q9NTZ6, residues 830-932); protein domain microarray; RNA, in vitro; not given, poly(A) 8-mer RNA, whole probe, immobilized GST-fusion domains, most near background; reference: GST loading signal, higher = stronger binding): 0.0331
N#CC(c1ccnc(NCCc2cccnc2)n1)c1nc2ccccc2s1 (stereo not drawn)  remaining activity (Macrophage colony-stimulating factor 1 receptor (CSF1R, Homo sapiens, UniProt P07333); enzyme activity, inhibitor; 0.5 µM; reference: control): 99.2%

For quick reference, copied from above (block 2):
AATCCCAA: 0.108
GAGAGCCA: -0.0783
ACTGTAAG: 0.144
